Experimental data pooled from the literature.
Values joined by “and” are separate records of one study, mostly repeats; a detail may differ. ± marks the error that the study gave.
rep main protease: Replicase polyprotein 1ab, main protease (rep, Severe acute respiratory syndrome coronavirus 2, UniProt P0DTD1)
rep papain-like protease: Replicase polyprotein 1ab, papain-like protease (rep, Severe acute respiratory syndrome coronavirus 2, UniProt P0DTD1)
rep nsp14 methyltransferase: Replicase polyprotein 1ab, nsp14 methyltransferase (rep, Severe acute respiratory syndrome coronavirus 2, UniProt P0DTD1)
rep nsp3 macrodomain: Replicase polyprotein 1ab, nsp3 macrodomain (rep, Severe acute respiratory syndrome coronavirus 2, UniProt P0DTD1)
rep nsp12 RdRp: Replicase polyprotein 1ab, nsp12 RdRp (rep, Severe acute respiratory syndrome coronavirus 2, UniProt P0DTD1)

Compound	target	test	system	setting	how to read	quantity	result
C=CC(=O)N(c1ccc(C(C)(C)C)cc1)C(C(=O)NCCc1cccc(F)c1)c1cccnc1 (stereo not shown)	rep main protease	enzyme activity, inhibitor				kinact	0.00082 s⁻¹
CC(=O)Nc1ccc(-c2cnc(N3C(=O)C(Cl)C3c3cc4ccccc4nc3Cl)s2)cc1 (stereo not shown)	rep papain-like protease	thermal stability, DSF				ΔTm	3 °C
CC(C)=CCc1c(O)cc(O)c2c(=O)cc(-c3ccc(O)cc3)oc12	Replicase polyprotein 1ab, nsp13 helicase (rep, Severe acute respiratory syndrome coronavirus 2, UniProt P0DTD1)	ATPase activity, inhibitor		concentration not given, with: DTT		ATPase inhibition	no effect
CC1CC(c2ccc(-c3nnn[nH]3)cc2)=NN1c1ccc(C#N)c(Cl)c1 (stereo not shown)	rep nsp14 methyltransferase					lipophilic ligand efficiency	1.4
CCc1cccc2c(C(=O)NC3CCN(C(=O)C(C)C)CC3)c[nH]c12	rep main protease	protease activity, SAMDI-MS				Hill slope	1.77 and 1.78
O=C(Oc1cncc(Cl)c1)c1ccc2cc[nH]c2c1	rep main protease	inhibitor, biochemical				kinact/Ki	4400 M⁻¹ s⁻¹
CC1CC(c2ccc(C(=O)O)cc2C#N)=NN1c1ccc(C#N)c(Cl)c1 (stereo not shown)	rep nsp14 methyltransferase					lipophilic ligand efficiency	1.7
CNC(=O)C[C@H](Cc1ccc(F)cc1)NC(=O)[C@@H](Cc1ccc(Cl)cc1Cl)NC(=O)[C@H](N)Cc1ccccc1[N+](=O)[O-]	rep main protease	3CL protease activity		1 µM		remaining activity	33.2%
O=C(CCc1ccccc1)NOC(=O)OCc1ccccc1	rep main protease	enzyme inactivation, inhibitor		1 to 30 µM		kinact/KI	6400 M⁻¹ s⁻¹
O=C(O)CNC(=O)c1ccccc1[Se][Se]c1ccccc1C(=O)NCC(=O)O	rep main protease	enzyme activity, inhibitor		40 µM		inhibition	98.8% and 103%
CCn1ccc(-c2cc(C(C)NC(=O)c3cc(N4CC5CC4CN5C)ccc3C)c3ccccc3n2)n1 (stereo not shown)	rep papain-like protease	reporter gene, cell-based				GFP/mCherry signal ratio	42 and 66.8 and 20.5 and 5.86 and 22 and 92.9
CC(=O)N[C@@H](Cc1ccc(O)cc1)C(=O)N[C@@H](CCCNC(=N)N)C(=O)N[C@@H](Cc1ccccc1)C(=O)N[C@H]1CCC[C@@H]1C(=O)N[C@@H](CCCNC(=N)N)C(=O)N[C@@H](CC(N)=O)C(=O)N[C@H]1CCC[C@@H]1C(=O)N[C@H](C(=O)N[C@@H](Cc1ccccc1)C(=O)N[C@H]1CCC[C@@H]1C(=O)N[C@@H](Cc1ccccc1)C(=O)N[C@@H](Cc1ccc(O)cc1)C(=O)N[C@H]1CCC[C@@H]1C(=O)N[C@H](C(=O)N[C@@H](CC(=O)O)C(N)=O)[C@@H](C)O)C(C)C	rep main protease	binding, SPR		pH 7.6		kon	8e+07 M⁻¹ s⁻¹
O=C(c1cccc(Br)c1)N1CCC(c2ccn3ncc(C(=O)N4CCCCC4)c3c2)CC1	rep nsp3 macrodomain	thermal stabilisation, differential scanning fluorimetry		150 µM, SARS-CoV-2		ΔTm	0.51 ± 0.03 °C
O=C(O[C@@H]1Cc2c(O)cc(O)cc2O[C@@H]1c1cc(O)c(O)c(O)c1)c1cc(O)c(O)c(O)c1	rep main protease	iodoacetyl biotin labelling	SARS-CoV-2	increasing concentration		free thiol content	decreased
CCOc1cccc(NC(=O)CSc2cn(C(=O)OC(C)(C)C)c3ccccc23)c1	rep nsp12 RdRp	plus- and minus-strand replicon RNA, qRT-PCR	HEK-293T	10 µM, 24 h	baseline: control	reduction of Gluc RNA	~80%
O=c1oc2cc(O)ccc2c2ccc(O)cc12	rep main protease					binding efficiency index	19.1
[2H]C1([2H])CC[C@@H](C[C@@H](C#N)NC(=O)[C@@H]2[C@@H]3[C@H](CN2C(=O)[C@@H](NC(=O)C(F)F)C(C)(C)C)C3(C)C)C(=O)N1	rep main protease	enzyme activity, inhibitor		concentration not given		reactivation half-life	~123 h
O=C(O)CC[C@H](NC(=O)c1ccccc1[Se][Se]c1ccccc1C(=O)N[C@@H](CCC(=O)O)C(=O)O)C(=O)O	rep main protease	enzyme activity, inhibitor		40 µM, mean of repeats		inhibition	23.2%
CNC(=O)C[C@H](Cc1ccccc1)NC(=O)[C@@H](Cc1ccc(Cl)cc1Cl)NC(=O)[C@H](N)Cc1ccccc1C#N	rep main protease			0.0001693 µM		remaining activity	101%

Compound	target	test	system	setting	how to read	quantity	result
COC(=O)[C@H](C)NC(=O)c1ccccc1[Se][Se]c1ccccc1C(=O)N[C@@H](C)C(=O)OC	rep main protease	enzyme activity, inhibitor		40 µM, mean of repeats		inhibition	106%
COc1cc(OC)cc(C(=O)N(CCC(=O)N2CCNCC2)Cc2cccc(Cl)c2)c1	rep nsp3 macrodomain	enzyme activity, inhibitor, ADPr-Glo		concentration not given, SARS-CoV-2		ADP-ribosylhydrolase inhibition	inhibited
CNC(=O)C[C@H](Cc1ccc(F)cc1)NC(=O)[C@@H](Cc1ccc(Cl)cc1Cl)NC(=O)[C@H](N)Cc1ccccc1C#N	rep main protease			0.0001693 µM		remaining activity	81.5%
Cc1ccc(O[C@H]2CCN(C)C2)cc1C(=O)N[C@H](C)c1cc(-c2cnn(C)c2)nc2ccccc12	rep papain-like protease	reporter gene, cell-based				GFP/mCherry signal ratio	30.6 and -0.212 and 3.21 and 30.7 and 1.32 and -1.29
O=C1C=CC(=O)C=C1	Replicase polyprotein 1ab, nsp14 N7-methyltransferase (rep, Severe acute respiratory syndrome coronavirus 2, UniProt P0DTD1)	N7-methyltransferase activity, inhibitor, Py-FLINT				Hill slope	1.54 ± 0.42
COC(=O)C(=O)/C(=C\c1ccc(-c2ccccc2[N+](=O)[O-])o1)C(=O)c1ccccc1	rep main protease	enzyme activity, inhibitor		5 µM		Vmax	33.1 ± 2.8 RFU/s
CC1CCc2c(sc3ncnc(Sc4nnc(CN5CCCC5)o4)c23)C1 (stereo not shown)	rep main protease	protease activity, SAMDI-MS				Hill slope	1.27
CNC(=O)CC[C@H](Cc1ccccc1)NC(=O)[C@@H](Cc1ccc(Cl)cc1Cl)NC(=O)[C@H](N)Cc1ccccc1[N+](=O)[O-]	rep main protease	3CL protease activity		0.04576 µM		remaining activity	93.9%
O=C(NC1CCC(F)(F)CC1)C(c1cncnc1)N(C(=O)C(F)Cl)c1ccc(OC(F)(F)F)cc1 (stereo not shown)	rep main protease	enzyme activity, inhibitor		34 nM		inhibition	18.1%
Cc1ccc(OCCN(C)C)cc1C(=O)N[C@H](C)c1cc(-c2ccco2)nc2ccccc12	rep papain-like protease	reporter gene, cell-based				GFP/mCherry signal ratio	0 and 64.7 and 83.4 and 72.9
O=c1c2cccc([N+](=O)[O-])c2[se]n1-c1ccccc1	rep main protease	thermal shift	SARS-CoV-2	main protease		melting temperature	36 °C
O=C(O[C@H]1Cc2c(O)cc(O)cc2O[C@@H]1c1cc(O)c(O)c(O)c1)c1cc(O)c(O)c(O)c1	rep main protease	surface plasmon resonance				Rmax	47.4 RU
C[C@](C(=O)NC1CCOCC1)(c1cncnc1)N(C(=O)[C@H](F)Cl)c1ccc(OC(F)(F)Cl)cc1	rep main protease	enzyme activity, inhibitor		4.6 nM		inhibition	17.6%
CNC(=O)C[C@H](Cc1ccncc1)NC(=O)[C@@H](Cc1cccc(Br)c1)NC(=O)[C@@H](N)Cc1cccc(F)c1	rep main protease	3CL protease activity		1 µM		remaining activity	36.5%
Nc1ccn([C@@H]2O[C@H](COP(=O)(O)OP(=O)(O)OP(=O)(O)O)[C@@H](O)[C@H]2O)c(=O)n1	rep nsp12 RdRp	nucleotide incorporation, substrate				Vmax	0.94 fraction per time
CNC(=O)C[C@H](Cc1ccncc1)NC(=O)[C@@H](Cc1cccc(Br)c1)NC(=O)[C@@H](N)Cc1ccsc1	rep main protease	3CL protease activity		1 µM		remaining activity	28.7%
c1ccc([Se][Se]c2ccccc2)cc1	rep main protease	enzyme activity, inhibitor		40 µM		inhibition	104%
O=C(NCCc1cccc(F)c1)[C@H](c1cncnc1)N(C(=O)[C@H](F)Cl)c1ccc(S(F)(F)(F)(F)F)cc1	rep main protease	enzyme activity, inhibitor				kinact/KI	66 M⁻¹ s⁻¹

A few entries again:
Compound	target	test	system	setting	how to read	quantity	result
Nc1ccn([C@@H]2O[C@H](COP(=O)(O)OP(=O)(O)OP(=O)(O)O)[C@@H](O)[C@H]2O)c(=O)n1	rep nsp12 RdRp	nucleotide incorporation, substrate				Vmax	0.94 fraction per time
COc1cc(OC)cc(C(=O)N(CCC(=O)N2CCNCC2)Cc2cccc(Cl)c2)c1	rep nsp3 macrodomain	enzyme activity, inhibitor, ADPr-Glo		concentration not given, SARS-CoV-2		ADP-ribosylhydrolase inhibition	inhibited
CNC(=O)C[C@H](Cc1ccccc1)NC(=O)[C@@H](Cc1ccc(Cl)cc1Cl)NC(=O)[C@H](N)Cc1ccccc1C#N	rep main protease			0.0001693 µM		remaining activity	101%
CC(=O)Nc1ccc(-c2cnc(N3C(=O)C(Cl)C3c3cc4ccccc4nc3Cl)s2)cc1 (stereo not shown)	rep papain-like protease	thermal stability, DSF				ΔTm	3 °C
COC(=O)[C@H](C)NC(=O)c1ccccc1[Se][Se]c1ccccc1C(=O)N[C@@H](C)C(=O)OC	rep main protease	enzyme activity, inhibitor		40 µM, mean of repeats		inhibition	106%
Cc1ccc(OCCN(C)C)cc1C(=O)N[C@H](C)c1cc(-c2ccco2)nc2ccccc12	rep papain-like protease	reporter gene, cell-based				GFP/mCherry signal ratio	0 and 64.7 and 83.4 and 72.9
